Results gathered from unrelated publications.
Lines come from different studies, so protocols differ. ± marks the error that the study gave.
Cnr2: Cannabinoid receptor 2 (Cnr2, Mus musculus, UniProt P47936)
UniProt P47936, sequence (whole entry, looked up): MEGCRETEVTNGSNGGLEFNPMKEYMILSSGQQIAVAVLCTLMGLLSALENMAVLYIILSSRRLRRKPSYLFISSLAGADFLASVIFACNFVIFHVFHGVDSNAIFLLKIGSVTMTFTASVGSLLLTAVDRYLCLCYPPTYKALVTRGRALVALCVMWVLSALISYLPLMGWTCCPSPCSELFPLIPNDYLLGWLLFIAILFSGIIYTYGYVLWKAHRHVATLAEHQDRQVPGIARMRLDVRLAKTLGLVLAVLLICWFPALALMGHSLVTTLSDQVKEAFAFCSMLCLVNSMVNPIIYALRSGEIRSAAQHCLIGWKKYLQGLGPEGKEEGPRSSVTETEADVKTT
STING1 H232R: Stimulator of interferon genes protein (STING1, Homo sapiens, UniProt Q86WV6, H232R)
UniProt Q86WV6, sequence (whole entry, unmodified, looked up): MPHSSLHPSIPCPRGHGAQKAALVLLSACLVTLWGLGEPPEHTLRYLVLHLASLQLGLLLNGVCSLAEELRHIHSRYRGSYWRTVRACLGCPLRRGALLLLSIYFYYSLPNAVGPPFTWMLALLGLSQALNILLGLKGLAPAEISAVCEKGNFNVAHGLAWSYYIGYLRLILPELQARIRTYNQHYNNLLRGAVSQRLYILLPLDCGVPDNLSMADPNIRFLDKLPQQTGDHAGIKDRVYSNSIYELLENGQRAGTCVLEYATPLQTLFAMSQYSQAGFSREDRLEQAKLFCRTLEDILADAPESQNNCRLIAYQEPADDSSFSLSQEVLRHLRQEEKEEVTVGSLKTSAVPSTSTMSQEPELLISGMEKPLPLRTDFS
UniProt Q8NHB7, sequence (whole entry, unmodified, looked up): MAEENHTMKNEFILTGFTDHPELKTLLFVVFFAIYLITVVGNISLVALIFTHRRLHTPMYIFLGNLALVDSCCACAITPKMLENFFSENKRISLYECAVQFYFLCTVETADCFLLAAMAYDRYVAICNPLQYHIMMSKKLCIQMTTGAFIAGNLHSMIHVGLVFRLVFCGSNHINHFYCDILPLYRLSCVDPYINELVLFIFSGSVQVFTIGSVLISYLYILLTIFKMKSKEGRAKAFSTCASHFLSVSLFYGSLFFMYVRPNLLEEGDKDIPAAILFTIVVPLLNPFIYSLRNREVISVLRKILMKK
UniProt Q704Y3, sequence (whole entry, unmodified, looked up): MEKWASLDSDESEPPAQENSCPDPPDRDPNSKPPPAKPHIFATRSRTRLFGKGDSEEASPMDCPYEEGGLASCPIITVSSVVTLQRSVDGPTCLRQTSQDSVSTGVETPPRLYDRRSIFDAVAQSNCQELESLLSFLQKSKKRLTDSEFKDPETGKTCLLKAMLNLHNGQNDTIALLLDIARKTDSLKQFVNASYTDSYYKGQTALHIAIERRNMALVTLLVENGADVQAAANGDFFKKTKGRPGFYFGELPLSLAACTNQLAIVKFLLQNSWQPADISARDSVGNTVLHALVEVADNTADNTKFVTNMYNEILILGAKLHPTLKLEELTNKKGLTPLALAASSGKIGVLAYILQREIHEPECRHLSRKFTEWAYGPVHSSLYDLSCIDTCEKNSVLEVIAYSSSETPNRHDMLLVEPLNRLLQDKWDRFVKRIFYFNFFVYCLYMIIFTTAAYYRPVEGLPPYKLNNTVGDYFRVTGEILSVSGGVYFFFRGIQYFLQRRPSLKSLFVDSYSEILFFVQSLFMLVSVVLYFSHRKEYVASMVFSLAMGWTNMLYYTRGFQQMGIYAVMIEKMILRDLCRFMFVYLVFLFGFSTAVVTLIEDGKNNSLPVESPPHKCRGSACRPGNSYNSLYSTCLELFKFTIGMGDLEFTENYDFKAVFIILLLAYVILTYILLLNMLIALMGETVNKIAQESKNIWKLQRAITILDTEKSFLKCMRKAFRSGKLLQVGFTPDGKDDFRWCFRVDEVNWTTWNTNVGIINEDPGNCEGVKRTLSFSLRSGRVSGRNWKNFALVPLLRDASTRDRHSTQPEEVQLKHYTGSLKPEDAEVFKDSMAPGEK
UniProt Q92847, sequence (whole entry, looked up): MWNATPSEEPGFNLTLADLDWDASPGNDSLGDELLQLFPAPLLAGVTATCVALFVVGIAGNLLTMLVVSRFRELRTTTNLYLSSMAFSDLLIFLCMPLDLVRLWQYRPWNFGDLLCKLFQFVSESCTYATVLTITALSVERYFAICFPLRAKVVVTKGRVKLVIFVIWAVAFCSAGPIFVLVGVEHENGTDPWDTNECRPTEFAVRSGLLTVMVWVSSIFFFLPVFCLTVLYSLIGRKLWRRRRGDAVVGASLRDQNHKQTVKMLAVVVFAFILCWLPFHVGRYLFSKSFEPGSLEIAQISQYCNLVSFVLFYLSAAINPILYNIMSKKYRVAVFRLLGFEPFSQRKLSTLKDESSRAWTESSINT
UniProt O75762, sequence (whole entry, unmodified, looked up): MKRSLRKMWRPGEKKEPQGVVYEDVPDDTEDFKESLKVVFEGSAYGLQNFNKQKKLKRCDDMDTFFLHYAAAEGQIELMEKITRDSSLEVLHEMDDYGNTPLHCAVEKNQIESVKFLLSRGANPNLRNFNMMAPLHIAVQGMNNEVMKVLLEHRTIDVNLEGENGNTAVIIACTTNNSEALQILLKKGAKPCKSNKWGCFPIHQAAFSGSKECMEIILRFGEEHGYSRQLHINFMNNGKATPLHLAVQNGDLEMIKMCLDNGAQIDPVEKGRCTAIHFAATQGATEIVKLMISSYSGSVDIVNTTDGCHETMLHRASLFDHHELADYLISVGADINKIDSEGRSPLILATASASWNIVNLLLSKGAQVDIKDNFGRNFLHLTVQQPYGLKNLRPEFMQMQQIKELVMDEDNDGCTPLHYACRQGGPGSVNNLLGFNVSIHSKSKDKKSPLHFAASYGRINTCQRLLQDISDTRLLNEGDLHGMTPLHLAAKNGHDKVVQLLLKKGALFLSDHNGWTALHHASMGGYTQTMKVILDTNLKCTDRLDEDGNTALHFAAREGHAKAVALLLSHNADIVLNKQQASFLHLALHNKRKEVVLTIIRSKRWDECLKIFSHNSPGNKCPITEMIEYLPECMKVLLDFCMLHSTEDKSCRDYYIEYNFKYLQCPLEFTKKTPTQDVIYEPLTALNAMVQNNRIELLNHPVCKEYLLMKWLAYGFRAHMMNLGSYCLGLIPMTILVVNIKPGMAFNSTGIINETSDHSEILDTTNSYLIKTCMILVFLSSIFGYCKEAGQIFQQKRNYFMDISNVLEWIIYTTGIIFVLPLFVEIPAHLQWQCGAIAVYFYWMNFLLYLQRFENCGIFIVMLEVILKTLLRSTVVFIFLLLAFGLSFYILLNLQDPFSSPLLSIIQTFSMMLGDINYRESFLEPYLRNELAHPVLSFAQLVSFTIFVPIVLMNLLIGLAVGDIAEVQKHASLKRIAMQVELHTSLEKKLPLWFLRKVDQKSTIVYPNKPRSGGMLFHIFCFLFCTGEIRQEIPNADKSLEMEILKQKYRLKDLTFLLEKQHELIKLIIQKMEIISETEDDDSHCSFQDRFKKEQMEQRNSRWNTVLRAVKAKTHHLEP
UniProt P32302, sequence (whole entry, looked up): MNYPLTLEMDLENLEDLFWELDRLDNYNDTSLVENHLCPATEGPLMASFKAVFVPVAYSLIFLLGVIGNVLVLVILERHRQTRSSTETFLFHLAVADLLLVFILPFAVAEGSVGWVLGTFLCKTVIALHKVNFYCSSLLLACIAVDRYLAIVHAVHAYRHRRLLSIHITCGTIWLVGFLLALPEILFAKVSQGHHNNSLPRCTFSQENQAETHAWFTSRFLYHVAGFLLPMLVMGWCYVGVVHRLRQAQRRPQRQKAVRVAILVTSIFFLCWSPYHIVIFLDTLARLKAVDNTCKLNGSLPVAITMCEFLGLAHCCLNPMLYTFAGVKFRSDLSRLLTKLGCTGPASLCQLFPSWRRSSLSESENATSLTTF
UniProt P17858, sequence (whole entry, looked up): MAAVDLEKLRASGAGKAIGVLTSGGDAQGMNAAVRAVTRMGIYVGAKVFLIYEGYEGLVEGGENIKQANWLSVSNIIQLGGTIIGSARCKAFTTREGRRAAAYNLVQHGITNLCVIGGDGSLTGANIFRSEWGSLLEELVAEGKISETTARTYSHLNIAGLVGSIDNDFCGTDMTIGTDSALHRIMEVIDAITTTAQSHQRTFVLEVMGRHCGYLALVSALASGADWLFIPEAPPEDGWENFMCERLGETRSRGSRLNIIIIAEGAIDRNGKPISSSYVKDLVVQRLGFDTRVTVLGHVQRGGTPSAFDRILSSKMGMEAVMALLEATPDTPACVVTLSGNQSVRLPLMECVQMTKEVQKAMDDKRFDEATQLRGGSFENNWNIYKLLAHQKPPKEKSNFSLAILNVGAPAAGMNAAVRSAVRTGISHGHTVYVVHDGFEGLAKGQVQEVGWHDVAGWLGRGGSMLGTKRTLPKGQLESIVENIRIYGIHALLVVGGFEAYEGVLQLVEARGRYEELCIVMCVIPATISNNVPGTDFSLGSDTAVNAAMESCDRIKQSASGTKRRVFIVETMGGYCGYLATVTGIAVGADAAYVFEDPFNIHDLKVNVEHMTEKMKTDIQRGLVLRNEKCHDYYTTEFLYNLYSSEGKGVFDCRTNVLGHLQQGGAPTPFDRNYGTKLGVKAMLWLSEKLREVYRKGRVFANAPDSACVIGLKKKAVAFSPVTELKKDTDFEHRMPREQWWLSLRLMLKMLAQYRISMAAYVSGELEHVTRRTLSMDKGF
UniProt Q92633, sequence (whole entry, unmodified, looked up): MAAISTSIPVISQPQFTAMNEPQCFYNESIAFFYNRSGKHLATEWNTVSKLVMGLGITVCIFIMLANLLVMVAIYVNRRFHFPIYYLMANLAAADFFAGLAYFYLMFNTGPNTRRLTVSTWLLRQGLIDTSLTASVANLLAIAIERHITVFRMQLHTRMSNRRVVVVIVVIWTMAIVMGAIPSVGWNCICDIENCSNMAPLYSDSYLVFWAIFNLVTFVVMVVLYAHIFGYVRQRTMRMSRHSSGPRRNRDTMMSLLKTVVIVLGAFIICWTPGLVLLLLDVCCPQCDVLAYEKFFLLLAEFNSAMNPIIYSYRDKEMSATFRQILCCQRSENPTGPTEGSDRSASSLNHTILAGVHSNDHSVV

CCOC(=O)[C@](CC)(CCCSCCOCCOCCNC(=O)c1ccc(C(=O)[O-])c(C2=C3C=CC(=[N+](C)C)C=C3[Si](C)(C)c3cc(N(C)C)ccc32)c1)NC(=O)c1ccc(C2CC2)c(Cc2ccc(F)cc2)n1 — EC50 (Cnr2; cAMP, agonist): 0.066 µM
O=C(NC1(c2nc3ccccc3[nH]2)CCN(C(=O)c2ccc([N+](=O)[O-])o2)CC1)c1ccc(-c2ccccc2)cc1 — EC50 (STING1 H232R; reporter gene, inhibitor; THP1-Dual KI-hSTING-R232; 24 h, 1 h preincubation, together with: diABZI 500 nM): 26.7 µM
CCOC(=O)C(CC)(CCCSCCCCCCNC(=O)OC(C)(C)C)NC(=O)c1ccc(C2CC2)c(Cc2ccc(F)cc2)n1 (stereo not drawn) — EC50 (Cnr2; cAMP, agonist): 0.078 µM
O=C(Nn1c(-c2cccc(Cl)c2)nc2ccccc2c1=O)c1ccccc1 — EC50 (TRPM channel TRPM_PZQ (Fasciola hepatica, UniProt A0A4E0RBW4); whole-cell inward current, activator, automated patch clamp; HEK293): 0.27 ± 0.08 µM
O=C(NC[C@@H](Cc1ccc(F)cc1)N1CCC(O)(C(F)(F)F)CC1)C1(c2ccc(Cl)cc2)CCCC1 — EC50 (TRPA1 (Homo sapiens, UniProt O75762, V942A)): 0.0097 µM
COc1ccc(C(=O)c2c(C(=O)NCCCN(C)C)oc3ccc(Cl)cc3c2=O)cc1OC — EC50 (GHSR (Homo sapiens, UniProt Q92847); calcium mobilization; HEK293T, transiently transfected): 0.0631 µM
C#Cc1ccc(C(=O)N[C@@H](CCNC(=O)c2ccc([N+](=O)[O-])o2)c2nc3ccccc3[nH]2)cc1 — EC50 (STING1 H232R; reporter gene, inhibitor; THP1-Dual KI-hSTING-R232; 24 h, 1 h preincubation, together with: diABZI 500 nM): 13.6 µM
CCOC(=O)[C@@](CC)(CCCSCCOCCOCCNC(=O)OC(C)(C)C)NC(=O)c1ccc(C2CC2)c(Cc2ccc(F)cc2)n1 — EC50 (Cnr2; cAMP, agonist): 0.128 µM
NC(=O)C[C@H](N)C(=O)N[C@H](Cc1c[nH]c2ccccc12)C(=O)N[C@@H](Cc1ccccc1)C(N)=O — EC50 (uncharacterized protein (Aplysia californica, UniProt A0ABM0K1K5); IP1 accumulation, agonist; CHO-K1 cells, transfected; inactive, value is lower bound): > 501 µM
O=C(NCC[C@H](NC(=O)c1ncc(-c2ccccc2)s1)c1nc2ccccc2[nH]1)c1ccc([N+](=O)[O-])o1 — EC50 (STING1 H232R; reporter gene, inhibitor; THP1-Dual KI-hSTING-R232; 24 h, 1 h preincubation, together with: diABZI 500 nM): 5.5 µM
O=C(Cc1ccc(OCc2ccccc2)cc1)NC1(C(=O)O)CCN(C(=O)c2ccc(-c3cccc(Cl)c3)cc2)CC1 — EC50 (CXCR5 (Homo sapiens, UniProt P32302); cAMP, agonist, luciferase): > 10 µM
CCOC(=O)C(CC)(CCCSCCOCCOCCN)NC(=O)c1ccc(C2CC2)c(Cc2ccc(F)cc2)n1 (racemic) — EC50 (Cnr2; cAMP, agonist): 0.045 µM
O=S(=O)(c1ccc2c(c1)OCO2)n1cc(CCCCN2CCC(=C(c3ccc(F)c(F)c3)c3ccc(F)c(F)c3)CC2)nn1 — EC50 (PFKL (Homo sapiens, UniProt P17858); enzyme activity, activator, ADP-Glo; 0.5): 0.746 µM
N=C(NCC[C@H](NC(=O)c1ccc(-c2ccccc2)cc1)c1nc2ccccc2[nH]1)c1ccc([N+](=O)[O-])o1 — EC50 (STING1 H232R; reporter gene, inhibitor; THP1-Dual KI-hSTING-R232; 24 h, 1 h preincubation, together with: diABZI 500 nM): 0.63 µM
COC1=C(C)OC(C)C1=O (stereo not drawn) — EC50 (OR5K1 (Homo sapiens, UniProt Q8NHB7); cAMP luminescence, agonist; HEK293): 475 µM
O=C(NCC[C@H](NC(=O)c1cnc(-c2ccccc2)s1)c1nc2ccccc2[nH]1)c1ccc([N+](=O)[O-])o1 — EC50 (STING1 H232R; reporter gene, inhibitor; THP1-Dual KI-hSTING-R232; 24 h, 1 h preincubation, together with: diABZI 500 nM): 11.1 µM
[N-]=[N+]=Nc1c(C2CC2)cc(CC(=O)NC2(C(=O)O)CCCCC2)cc1C1CC1 — EC50 (PYL4 (Arabidopsis thaliana, UniProt O80920); phosphatase activity recovery, antagonist; together with: HAB1, ABA 5000 nM): 29.2 ± 2.64 µM
O=C(N[C@@H](CCCCNC(=O)c1ccc([N+](=O)[O-])o1)c1nc2ccccc2[nH]1)c1ncc(-c2ccccc2)cn1 — EC50 (STING1 H232R; reporter gene, inhibitor; THP1-Dual KI-hSTING-R232; 24 h, 1 h preincubation, together with: diABZI 500 nM): 3.5 µM
CC1=NC(C)C(C)S1 (stereo not drawn) — EC50 (OR5K1 (Homo sapiens, UniProt Q8NHB7, A2T/I280V/T15M/V39I/Y193C); cAMP, agonist; HEK293 transfected with OR5K1): 901 ± 194 µM
O=C(NCC[C@H](NCc1ccc(-c2ccccc2)cc1)c1nc2ccccc2[nH]1)c1ccc([N+](=O)[O-])o1 — EC50 (STING1 H232R; reporter gene, inhibitor; THP1-Dual KI-hSTING-R232; 24 h, 1 h preincubation, together with: diABZI 500 nM): 6.1 µM
CCOC(=O)C(CC)(CCCSCCOCCN)NC(=O)c1ccc(C2CC2)c(Cc2ccc(F)cc2)n1 (stereo not drawn) — EC50 (Cnr2; cAMP, agonist): 0.013 µM
CCCCCCCC/C=C\CCCCCCCC(=O)NCCO — EC50 (Trpv1 (Mus musculus, UniProt Q704Y3, S513A); ion current, agonist, whole-cell patch clamp; 24 °C, +80 mV): 0.39 ± 0.32 µM
CCOC(=O)C(CC)(CCCSCCCCCCNc1ccc([N+](=O)[O-])c2nonc12)NC(=O)c1ccc(C2CC2)c(Cc2ccc(F)cc2)n1 (stereo not drawn) — EC50 (Cnr2; cAMP, agonist): 0.142 µM
O=C(N[C@@H](CCCCNC(=O)c1ccc([N+](=O)[O-])o1)c1nc2ccccc2[nH]1)c1cnn(-c2ccccc2)c1 — EC50 (STING1 H232R; reporter gene, inhibitor; THP1-Dual KI-hSTING-R232; 24 h, 1 h preincubation, together with: diABZI 500 nM): 17.3 µM
CC[C@H](C)[C@@H](C(=O)N[C@@H](CC(C)C)C(=O)N[C@@H](CO)C(=O)N[C@@H](CO)C(=O)N[C@H](C(=O)N[C@@H](CCC(=O)O)C(=O)N[C@H](C(=O)NCC(=O)N[C@@H](CO)C(=O)N[C@@H](CC(N)=O)C(=O)N[C@H](C(=O)N1C[C@H](O)C[C@H]1C(N)=O)[C@@H](C)O)C(C)C)[C@@H](C)O)N(C)C(=O)[C@H](C)NC(=O)CN(C)C(=O)[C@H](Cc1ccccc1)NC(=O)[C@H](CO)NC(=O)[C@H](CO)NC(=O)[C@H](CCCNC(=N)N)NC(=O)[C@H](CCC(N)=O)NC(=O)[C@H](CC(C)C)NC(=O)[C@H](Cc1ccccc1)NC(=O)[C@H](Cc1c[nH]cn1)NC(=O)[C@H](C)NC(=O)[C@H](CC(C)C)NC(=O)[C@H](CCCNC(=N)N)NC(=O)[C@H](CCC(=O)O)NC(=O)[C@@H](NC(=O)[C@H](C)NC(=O)[C@@H]1CNC(=O)C[C@H](NC(=O)[C@H](CCCNC(=N)N)NC(=O)CC[C@H](NC(=O)CCCCCCCCCCCCCCCCCCC(=O)O)C(=O)O)C(=O)NCC(=O)N[C@@H]([C@@H](C)O)C(=O)N[C@@H](C)C(=O)N[C@@H]([C@@H](C)O)C(=O)N1)[C@@H](C)O — EC50 (Amylin receptor AMY3; CALCR/RAMP3 (Homo sapiens, UniProt O60896+P30988); cAMP accumulation, agonist; COS-7 expressing CTR and RAMP3; 15 min, 37 °C): > 0.05 µM
COc1cc(C2C(NC(=O)c3ccc(NC(=O)OC(C)(C)C)cc3)(C(=O)O)C(c3ccc(OC(=O)c4cccs4)c(OC)c3)C2(NC(=O)c2ccc(NC(=O)OC(C)(C)C)cc2)C(=O)O)ccc1OC(=O)c1cccs1 (stereo not drawn) — EC50 (GLP1R (Homo sapiens, UniProt P43220, E34A); cAMP, agonist): 0.00501 µM
CCCCCCCC/C=C\CCCCCCCC(=O)OCC(O)COP(=O)(O)O (stereo not drawn) — EC50 (LPAR1 (Homo sapiens, UniProt Q92633, W210A); Gi activation, agonist, NanoBiT G-protein dissociation; HEK293T; W210A mutant): 0.0617 µM

Excerpt of the above:
COc1ccc(C(=O)c2c(C(=O)NCCCN(C)C)oc3ccc(Cl)cc3c2=O)cc1OC — EC50 (GHSR (Homo sapiens, UniProt Q92847); calcium mobilization; HEK293T, transiently transfected): 0.0631 µM
C#Cc1ccc(C(=O)N[C@@H](CCNC(=O)c2ccc([N+](=O)[O-])o2)c2nc3ccccc3[nH]2)cc1 — EC50 (STING1 H232R; reporter gene, inhibitor; THP1-Dual KI-hSTING-R232; 24 h, 1 h preincubation, together with: diABZI 500 nM): 13.6 µM
CCOC(=O)[C@@](CC)(CCCSCCOCCOCCNC(=O)OC(C)(C)C)NC(=O)c1ccc(C2CC2)c(Cc2ccc(F)cc2)n1 — EC50 (Cnr2; cAMP, agonist): 0.128 µM
